Assay results from different studies.
Each line is one published result; not all experiments were run side by side. Numbers after ± are the reported error.
Organism: HIV-1

Structure (SMILES) | test | system | conditions | EC50
CCN(C(=O)[C@H](Cc1ccccc1)NC(=O)CNC(=O)c1ccccc1)c1ccccc1 | viral replication | TZM-GFP, NL4-3 | – | 2500 ± 30 nM
COc1cc(F)c(C(=O)c2cc(N)nc(Nc3ccc(C#N)cc3)n2)c(F)c1 | cytoprotection | MT-4, IIIB | 5 days | 4.4 nM
Cc1cc(C)cc(S(=O)(=O)c2c(C(=O)NCCCCNS(=O)(=O)c3ccc(C#N)cc3)[nH]c3ccc(Cl)cc23)c1 | viral replication | MT-4, IIIB | – | 17 ± 10 nM
COc1ccc2nc(NCc3ccc(CNCCCNC4CCCCC4)cc3)nc(NC3CCNCC3)c2c1 | viral replication, luciferase reporter | TZM-bl, IIIB | – | 47.4 ± 18.3 nM
CCN(CC)CCCC(C)Nc1ccnc2cc(Cl)ccc12 (stereo not shown) | cytopathic effect | MT4, NL4.3 | 5 days | 31700 ± 4700 nM
Cc1cn([C@H]2C[C@H](N=[N+]=[N-])[C@@H](CO)O2)c(=O)[nH]c1=O | viral replication | PBMC | – | 4.4 nM
Cc1cc(C)cc(S(=O)(=O)c2c(C(=O)NCCCNS(=O)(=O)c3ccc([N+](=O)[O-])cc3)[nH]c3ccc(Cl)cc23)c1 | viral replication | MT-4, IIIB | – | 50 ± 23 nM
c1nc2c(NCc3cncc(CNCCCNC4CCCCC4)c3)nc(N3CCNCC3)nc2[nH]1 | viral replication, luciferase reporter | TZM-bl, IIIB | – | 5.7 ± 1 nM
Cc1cn([C@H]2C[C@H](N=[N+]=[N-])[C@@H](COC(=O)Cn3c(=O)ccn(CCCCCCCCCCOc4ccc(Br)cc4)c3=O)O2)c(=O)[nH]c1=O | viral replication, item: p24gag | MT4, Lai.04 | 3 days | 440 ± 290 nM
COc1nc(NCCCNc2nc(Nc3ccc(C#N)c(OCC=C(C)C)c3)nc(OC)n2)nc(Nc2ccc(C#N)c(OCC=C(C)C)c2)n1 | protection from viral cytopathicity, MTT | MT-2, IIIB | – | > 6000 nM
Cc1cc(O)c(=O)c(O)c2c1CC(C(C)(O)CO)CC2 (stereo not shown) | cytopathic effect | CEM-SS, RF | – | > 50000 nM
COc1ccc(S(=O)(=O)NCCCNC(=O)c2[nH]c3ccc(Cl)cc3c2S(=O)(=O)c2cc(C)cc(C)c2)cc1 | viral replication | MT-4, IIIB | – | 37 ± 8.5 nM
Cc1cn([C@H]2C[C@H](N=[N+]=[N-])[C@@H](COC(=O)Cn3c(=O)ccn(CCCCCOc4ccc(Br)cc4)c3=O)O2)c(=O)[nH]c1=O | viral replication, item: p24gag | MT4, Lai.04 | 3 days | 610 ± 310 nM
Cc1cc(C)cc(S(=O)(=O)c2c(C(=O)NCCCCNS(=O)(=O)c3ccccc3)[nH]c3ccc(Cl)cc23)c1 | viral replication | MT-4, IIIB | – | 7.5 ± 1 nM
Cn1cnc2c(NCc3ccc(CNCCCNC4CCCCC4)cc3)nc(N3CCNCC3)nc21 | viral replication, luciferase reporter | TZM-bl, IIIB | – | 3.4 ± 0.2 nM
Cc1cc(C)cc(S(=O)(=O)c2c(C(=O)NCCNS(=O)(=O)C3CC3)[nH]c3ccc(Cl)cc23)c1 | viral replication | MT-4, IIIB | – | 4 nM
O=c1ccn([C@H]2C=C[C@@H](CO)O2)c(=O)[nH]1 | viral replication, supernatant RT activity | human PBM cells, LAI | 6 days | > 100000 nM
O=C(O)c1ccccc1-n1c(-c2ccccc2)nc2ccc(Br)cc2c1=O | cytopathic effect | MT-4, IIIB | 5 days | 74.8 µg/mL
Cc1cc(C)cc(S(=O)(=O)c2c(C(=O)NCCCCNS(=O)(=O)c3ccc(F)cc3)[nH]c3ccc(Cl)cc23)c1 | viral replication | MT-4, IIIB | – | 20 ± 8.5 nM

Excerpt of the above:
Structure (SMILES) | test | system | conditions | EC50
Cc1cc(C)cc(S(=O)(=O)c2c(C(=O)NCCNS(=O)(=O)C3CC3)[nH]c3ccc(Cl)cc23)c1 | viral replication | MT-4, IIIB | – | 4 nM
Cc1cn([C@H]2C[C@H](N=[N+]=[N-])[C@@H](COC(=O)Cn3c(=O)ccn(CCCCCCCCCCOc4ccc(Br)cc4)c3=O)O2)c(=O)[nH]c1=O | viral replication, item: p24gag | MT4, Lai.04 | 3 days | 440 ± 290 nM
